Assay results pooled from the literature.
“And” joins repeats or separate records; there may be more than shown. Numbers after ± are the reported error. In brackets after ≈: the same amount, converted by molar mass.

| SMILES | test | test system | setting | scale | measurement | result |
| --- | --- | --- | --- | --- | --- | --- |
| Cc1nn(-c2nc3c(F)cc(F)cc3s2)c(O)c1C(c1ccc(C(F)(F)F)cc1)c1c(C)nn(-c2nc3c(F)cc(F)cc3s2)c1O |  | ICR mouse, plasma | intravenous, 5 mg/kg |  | elimination rate constant | 0.159 h⁻¹ and 0.0783 h⁻¹ and 0.0515 h⁻¹ |
| CN([O-])C(=O)CN1CCN(CC(=O)N(C)[O-])CCN(Cc2ccccn2)CC1.[89Zr+4] | radio-TLC | human serum | 3 days, run 2 |  | intact complex | 100% |
| COC(=O)[C@@]1(C(C)C)C=C(C(=O)Nc2cccc(C(=O)Nc3ccc(Nc4nccc(-c5cccnc5)n4)c(C)c3)c2)C(=O)CC1 |  | rat, plasma | 10 µM, 120 min |  | compound remaining | 77.9% |
| C=CC(=O)N1CC2C(=O)N(CCN(C)C)c3c(c4cc(Cl)c(-c5c(O)cccc5F)nc4n(-c4c(C)ccnc4C(C)C)c3=O)N2CC1C (stereo not drawn) |  | mouse, brain | oral, 30 mg/kg, 4 h |  | concentration | 9.17 ng/mL |
| COc1ccc2c(c1)C(C)(C)C(/C=C/C1=C(Oc3ccc(C(=O)NCCCCOc4cc(CN(Cc5ccccn5)Cc5ccccn5)cc(CN(Cc5ccccn5)Cc5ccccn5)c4)cc3)C(=C/C=C3/N(CCCCS(=O)(=O)[O-])c4ccc(OC)cc4C3(C)C)CCC1)=[N+]2CCCCS(=O)(=O)[O-].O=[N+]([O-])[O-].O=[N+]([O-])[O-].[99Tc+].[C-]#[O+].[C-]#[O+].[C-]#[O+].[Zn+2] |  | mouse, stomach | 12 h |  | tracer uptake | 1.66 %ID/g |
| CC[C@H](C)[C@@H]1NC(=O)[C@H](Cc2ccc(O)cc2)NC(=O)CCCSC[C@@H](C(=O)N(CC(=O)N[C@@H](CC(C)C)C(=O)NCC(N)=O)Cc2ccc(F)cc2)NC(=O)[C@H](CC(N)=O)NC(=O)[C@H](CCC(N)=O)NC1=O |  | human, plasma | intravenous, 20 µg, infusion |  | Vd | 38 L |
| CC(C)c1cnc(-c2cc(Cl)ccc2F)cc1Nc1ccncc1C(=O)NC(CO)CO |  | female C57BL/6 mice, plasma | oral, 100 mg/kg twice daily, day 1, MC-38 tumour-bearing, tau 8 h |  | unbound AUC(0-tau) | 1.37 µM·h |
| Cc1cc(C)n(CCN(CCN)CCCCCCNC(=O)[C@@H](N)Cc2c[nH]cn2)n1.[99Tc+].[C-]#[O+].[C-]#[O+].[C-]#[O+] |  | BALB/c nude mice, MCF7 xenograft, blood | intravenous, 15 min |  | tissue uptake | 3.54 ± 0.98 %IA/g |
| CC[C@H](C)[C@@H](C(=O)N[C@@H](CC(C)C)C(=O)N[C@@H](CO)C(=O)N[C@@H](CO)C(=O)N[C@H](C(=O)N[C@@H](CCC(=O)O)C(=O)N[C@H](C(=O)NCC(=O)N[C@@H](CO)C(=O)N[C@@H](CC(N)=O)C(=O)N[C@H](C(=O)N1C[C@H](O)C[C@H]1C(N)=O)[C@@H](C)O)C(C)C)[C@@H](C)O)N(C)C(=O)[C@H](C)NC(=O)CN(C)C(=O)[C@H](Cc1ccccc1)NC(=O)[C@H](CO)NC(=O)[C@H](CO)NC(=O)[C@H](CCCNC(=N)N)NC(=O)[C@H](CCC(N)=O)NC(=O)[C@H](CC(C)C)NC(=O)[C@H](Cc1ccccc1)NC(=O)[C@H](Cc1c[nH]cn1)NC(=O)[C@H](C)NC(=O)[C@H](CC(C)C)NC(=O)[C@H](CCCNC(=N)N)NC(=O)[C@H](CCC(=O)O)NC(=O)[C@@H](NC(=O)[C@H](C)NC(=O)[C@@H]1CCCNC(=O)C[C@H](NC(=O)[C@H](CCCNC(=N)N)NC(=O)CC[C@H](NC(=O)CCCCCCCCCCCCCCCCCCC(=O)O)C(=O)O)C(=O)NCC(=O)N[C@@H]([C@@H](C)O)C(=O)N[C@@H](C)C(=O)N[C@@H]([C@@H](C)O)C(=O)N1)[C@@H](C)O | RP-HPLC | water | 1.0 mg/mL, 7 days, pH 7.5, 40 °C |  | main peak area remaining | 98% |
| CCCC[C@H](NC(=O)CNC(=O)CNC(=O)[C@H](CCCCNC(=O)[C@H](CC(=O)O)NC(=O)C(C)c1ccc(CC(C)C)cc1)NC(=O)CN1CCN(CC(=O)O)CCN(CC(=O)O)CCN(CC(=O)O)CC1)C(=O)N[C@H]1CC(=O)NCCCC[C@@H](C(N)=O)NC(=O)[C@H](Cc2c[nH]c3ccccc23)NC(=O)[C@H](CCCNC(=N)N)NC(=O)[C@@H](Cc2ccccc2)NC(=O)[C@H](Cc2c[nH]cn2)NC1=O (stereo partly drawn) [lutetium-177 labelled] |  | C57 mice, tumour | 2 h | baseline: muscle | tumour-to-tissue ratio | 83.2 |
| CN(Cc1ccccc1)C(=O)CN1CCN(CC(=O)[O-])CCN(CC(=O)N(C)Cc2ccccc2)CC1.[44Sc+3] |  | mouse, bone | intravenous, 1 h |  | tracer uptake | 0.42 %ID/g |
| C[C@]12C[C@H](c3ccc(S(C)(=O)=O)cc3)C3=C4CCC(=O)C=C4CC[C@H]3[C@@H]1CC[C@@]2(O)C(F)(F)C(F)(F)F | refers to: compound (parent) | healthy human volunteers, pooled plasma | oral, 5 mg daily, day 28, 1 h |  | plasma concentration | 22.5 ng/mL |
| CN([O-])C(=O)CN1CCN(CC(=O)N(C)[O-])CCN(CC(=O)N(C)[O-])CC1.[89Zr+4] | radio-TLC | human serum | 7 days, run 3 |  | intact complex | 90.8% |
| CN(Cc1ccccc1)C(=O)CN1CCN(CC(=O)[O-])CCN(CC(=O)[O-])CC1.[18F-].[Sc+3] |  | mouse, blood | intravenous, 1 h |  | tracer uptake | 0.34 %ID/g |
| COc1cccc(OC)c1-c1cc(C(=O)NC2(C(=O)O)C3CC4CC(C3)CC2C4)nn1-c1ccc(C(=O)N(C)CCCN(C)CCCN(C)C(=O)[C@H](CCCCNC(=O)[C@H](CC(C)C)NC(=O)C2OC2C(=O)O)NC(=O)CN2CCN(CC(=O)[O-])CCN(CC(=O)[O-])CCN(CC(=O)[O-])CC2)cc1C(C)C.[177Lu+3] (mixture of isomers) |  | mouse, HT-29 xenograft, brain | 72 h post injection |  | tissue uptake | 0.014 %ID/g |
| CN(O)C(=O)CCC(=O)NCCCN(CCCCN(CCCNC(=O)CCC(=O)N(C)O)C(=O)CCC(=O)N(C)O)C(=O)CCC(=O)N(C)O.[89Zr] |  | mouse, spleen | 4 h |  | tracer uptake | 0.05 %ID/g |
| O=C([O-])CN1CCN(CC(=O)[O-])CCN(Cc2cccc(C(=O)[O-])n2)CC1.[177Lu+3] |  | mouse, lung | intravenous, 1 h |  | tracer uptake | 0.49 %ID/g |
| CN1CCC[C@]1(C)/C=C/S(=O)(=O)NC(=O)Nc1c2c(cc3c1CCC3)CCC2 | refers to: laboratory investigations | human | oral, 100 mg twice daily, 14 days, multiple ascending dose |  | subjects with adverse event | 50% |
| N#C[C@@H]1CC(F)(F)CN1C(=O)CNC(=O)c1ccnc2ccc(OCCCN3CCN(C(=O)CCc4ccc5c(c4)CN4CCN(Cc6cc(CCC(=O)O)ccc6O)CC(=O)[O][Al-]([18F])([O]C(=O)C4)[O]5)CC3)cc12 (stereo partly drawn) | radio-TLC | CD-1 mice, plasma | intravenous, 120 min post-injection |  | radiochemical purity | 55.7 ± 7.9% |
| CN(Cc1ccccc1)C(=O)CN1CCN(CC(=O)[O-])CCN(Cc2cccc(C(=O)[O-])n2)CC1.[18F-].[Sc+3] |  | mouse, brain | intravenous, 1 h |  | tracer uptake | 0.03 %ID/g |

| SMILES | test | test system | setting | scale | measurement | result |
| --- | --- | --- | --- | --- | --- | --- |
| OCC1OC(n2cnc3c(NCc4ccc(Br)s4)ncnc32)C(O)C1O (stereo not drawn) |  | Sprague-Dawley rat, both sexes | oral, 100 mg/kg, single dose |  | body temperature decrease | 1 to 2 °C |
| C=C(NC(=O)c1csc(-c2nc3c(cc2O)-c2nc(cs2)C(=O)NC(C(C)O)C(=O)NC(=C(C)OC)c2nc(cs2)C(=O)NC2c4nc(cs4)C(=O)NC(COC(=O)c4c5c6c(cccc6n4O)COC(=O)C(OC4CC(C)(O)C(N(C)C)C(C)O4)C2OC5)c2nc-3cs2)n1)C(N)=O (stereo not drawn) |  | ICR mice, Streptococcus pneumoniae ATCC 49169 infected, immunocompromised, blood | intravenous, 8 mg/kg/day three times daily |  | Tmax | 6.08 h |
| Cc1cc(F)ccc1-c1cc(N2C[C@H]3COC(O)CN3C[C@H]2CO)ncc1N(C)C(=O)C(C)(C)c1cc(C(F)(F)F)cc(C(F)(F)F)c1 (stereo partly drawn) |  | pooled human liver microsomes | pH 7.4, substrate depletion |  | Km | 0.128 µM |
| Cc1ncsc1-c1ccc(CNC(=O)[C@@H]2C[C@@H](O)CN2C(=O)[C@@H](NC(=O)COCC(C)(COCCOCCOCCNC(=O)C[C@@H]2N=C(c3ccc(Cl)cc3)c3c(sc(C)c3C)-n3c(C)nnc32)COCCOCCOCCNC(=O)C[C@@H]2N=C(c3ccc(Cl)cc3)c3c(sc(C)c3C)-n3c(C)nnc32)C(C)(C)C)cc1 |  | male C57BL/6 mouse, plasma | subcutaneous, 5 mg/kg, 4.98 min, single dose |  | concentration | 319 ng/mL |
| O=C(CCCCCCCCCCCCCCCCC(=O)Oc1c2n(cc(C(=O)NCc3c(F)cc(F)cc3F)c1=O)CC1OC3CCC(C3)N1C2=O)Oc1c2n(cc(C(=O)NCc3c(F)cc(F)cc3F)c1=O)CC1OC3CCC(C3)N1C2=O (stereo not drawn) |  | rat plasma | 1 µM, 24 h, 1% methanol |  | prodrug hydrolysed | 45% |
| C=CC(=O)Nc1cc(Nc2nccc(-c3cn(C)c4ccccc34)n2)c(OC)cc1N(C)CCNC | storage stability | human plasma | 72 h, on ice, medium QC level |  | recovery | 74.4% |
| C/C(N)=N/C(=N\S(=O)(=O)c1ccc(C(F)(F)F)cc1)N1C[C@H](c2ccccc2)C(c2ccc(Cl)cc2)=N1 |  | male C57BL/6 mouse, liver | intravenous, 5 mg/kg |  | Tmax | 0.5 h |
| CCC(C(=O)Nc1ccc(C(N)=O)c(F)c1)n1cc(OC)c(-c2cc(Cl)ccc2-n2cc(C(F)(F)F)nn2)cc1=O (stereo not drawn) |  | healthy male humans | 25 mg, ASD vs IR, fasted |  | procedure-related adverse events | 6.7% |
| CCCCN1C(=O)c2cccc3c(NCCN4CCOCC4)ccc(c23)C1=O |  | acetonitrile |  |  | fluorescence lifetime | 10.3 ns |
| O=C(Nc1cnccc1-c1ccc([18F])nc1)c1ccnc(NC(=O)C2CC2)c1 |  | FVB/NJ mice, both sexes, liver | intravenous, 30 min, median, P-gp inhibitor pretreatment, with: tariquidar 15 mg/kg iv |  | SUV | 8.54 |
| COCC1CN(C2CCN(c3cc(OC)c(Nc4ncc(Br)c(Nc5ccc6c(c5P(C)(C)=O)OCCO6)n4)cc3C)CC2)C1 | first-in-human trial | human | oral, 240 mg once daily | treatment-related leading to dose suspension | adverse events | 100% |
| C=C[C@]1(C)C[C@@H](OC(=O)CSc2ccc(NC(=O)c3ccco3)cc2)[C@]2(C)[C@H](C)CC[C@]3(CCC(=O)[C@H]32)[C@@H](C)[C@@H]1O |  | Mycoplasma gallisepticum-infected chickens, plasma | intramuscular, 80 mg/kg, 10 h |  | plasma concentration | 112 ng/mL and 142 ng/mL and 107 ng/mL and 99.3 ng/mL and 115 ng/mL and 101 ng/mL |
| COc1cccc(OC)c1-c1cc(C(=O)NC2(C(=O)O)C3CC4CC(C3)CC2C4)nn1-c1ccc(C(=O)N(C)CCOCCOCCN(C)C(=O)[C@H](CCCCNC(=O)[C@H](CC(C)C)NC(=O)C2OC2C(=O)O)NC(=O)CN2CCN(CC(=O)[O-])CCN(CC(=O)[O-])CCN(CC(=O)[O-])CC2)cc1C(C)C.[177Lu+3] (mixture of isomers) |  | mouse, HT-29 xenograft, muscle | 24 h post injection |  | tissue uptake | 0.05 %ID/g |
| O=c1c2ccccc2[se]n1CCCCCCn1[se]c2ccccc2c1=O | shake-flask, RP-HPLC | acetone | 24 h, 25 °C |  | solubility | 440 ± 40 µg/mL (≈ 920 µM) |
| CCCC[C@H](OC(C)=O)c1ccccc1C(=O)O |  | beagle dog, both sexes, whole blood | intravenous, 5 mg/kg, single dose |  | MRT(0-last) | 1.9 ± 0.5 h |
| N#C[C@@H]1CC(F)(F)CN1C(=O)CNC(=O)c1ccnc2c(NC(=O)[C@H](CCCCNC(=O)CCOCCOCCOCCOCCOCCOCCNC(=O)CN3CCN(CC(=O)[O-])CCN(CC(=O)[O-])CCN(CC(=O)[O-])CC3)NC(=O)CCCc3ccc(I)cc3)cccc12.[177Lu+3] |  | mouse, U-87 MG tumour xenograft, salivary gland | 4 h |  | tissue uptake | 4.47 ± 2.55 %ID/g |
| O=C(Nc1cnccc1-c1ccc([18F])cc1)c1ccnc(NC(=O)C2CC2)c1 | ex vivo gamma counting | GSK-3β transgenic mice, late-stage, skin | intravenous, 120 min, mean, P-gp inhibitor pretreatment, with: tariquidar 15 mg/kg iv |  | SUV | 0.27 |
| CN(Cc1ccccc1)C(=O)CN1CCN(CC(=O)N(C)Cc2ccccc2)CCN(Cc2cccc(C(=O)[O-])n2)CC1.[44Sc+3] |  | mouse, lung | intravenous, 1 h |  | tracer uptake | 1.39 %ID/g |
| Cc1ccc(CN2C(=O)/C(=N\c3ccc(Cl)cc3Br)c3ccccc32)cc1 |  | mouse, blood | 100 mg/kg |  | MCHC | 323 ± 12.6 g/L |
